Measured values gathered from unrelated publications.
Numbered parts are unrelated; each lists some results of a single study. Substitutions count along the parent as printed.

Set 1
Organism: Saccharomyces cerevisiae
Effect on: mating pheromone growth arrest
Method: pooled competitive growth deep sequencing
Form: peptide
Strain: no Cln2 overexpression
Setting: peptide tiling library
Reading: direction not given
Measurement: enrichment score
PKRAKRKLYTSEISSP: -0.156
SMTDFYHSKRRLIFSK: 0.0606
PKNAKRNLSSEFAN: -0.423
SSEVARHLLFQSHM: -0.0955

Set 2
Target: Sal-like protein 4, full length isoform A (SALL4, Homo sapiens, UniProt Q9UJQ4, residues 1-1053)
Chain of UniProt Q9UJQ4 (whole entry, looked up): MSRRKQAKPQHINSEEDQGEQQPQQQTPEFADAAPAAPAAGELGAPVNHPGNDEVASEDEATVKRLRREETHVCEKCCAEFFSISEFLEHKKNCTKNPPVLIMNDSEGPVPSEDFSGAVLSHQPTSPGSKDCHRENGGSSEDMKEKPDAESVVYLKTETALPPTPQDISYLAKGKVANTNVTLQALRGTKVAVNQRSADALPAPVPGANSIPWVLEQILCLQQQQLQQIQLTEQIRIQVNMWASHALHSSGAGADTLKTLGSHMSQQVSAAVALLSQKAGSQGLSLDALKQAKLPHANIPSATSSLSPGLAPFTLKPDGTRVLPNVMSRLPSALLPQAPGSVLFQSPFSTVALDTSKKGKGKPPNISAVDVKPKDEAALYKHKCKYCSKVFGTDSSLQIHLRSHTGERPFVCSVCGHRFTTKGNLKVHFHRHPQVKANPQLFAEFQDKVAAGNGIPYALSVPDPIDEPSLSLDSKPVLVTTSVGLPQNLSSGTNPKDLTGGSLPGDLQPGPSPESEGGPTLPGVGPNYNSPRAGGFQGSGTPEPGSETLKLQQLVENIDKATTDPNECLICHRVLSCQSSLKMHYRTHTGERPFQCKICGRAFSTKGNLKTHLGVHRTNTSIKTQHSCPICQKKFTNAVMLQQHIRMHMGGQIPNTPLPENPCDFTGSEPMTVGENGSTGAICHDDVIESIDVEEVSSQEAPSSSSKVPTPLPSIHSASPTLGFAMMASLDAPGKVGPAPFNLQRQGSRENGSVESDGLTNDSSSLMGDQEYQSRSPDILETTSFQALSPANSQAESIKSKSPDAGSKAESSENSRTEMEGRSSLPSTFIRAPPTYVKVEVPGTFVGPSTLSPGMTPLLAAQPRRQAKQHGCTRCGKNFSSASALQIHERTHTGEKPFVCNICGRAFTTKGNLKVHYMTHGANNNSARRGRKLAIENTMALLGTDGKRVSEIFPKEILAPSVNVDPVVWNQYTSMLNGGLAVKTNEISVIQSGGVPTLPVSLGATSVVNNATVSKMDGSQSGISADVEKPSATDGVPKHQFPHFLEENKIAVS
Method: universal PBM
Form: double-stranded DNA, one strand shown
Matrix: in vitro
Concentration: 600 nM
Setting: 8-mer, flanks averaged, mean of replicates
Reading: higher = stronger binding
Measurement: E-score
GGCCGGAC: -0.353
GCACCGAC: -0.276
AGGCGGGA: -0.2
AGGTCCCC: -0.369
GGCTTACA: -0.035
CACCAGAG: -0.223
ATTTACCA: 0.24
CAGTGCGG: -0.352
CATTGAGG: 0.0577
ACATGTCT: 0.166
AAGAGAAA: 0.039
ATTTAAGA: 0.177
ACCCTTAC: 0.0112
GGGTAACC: -0.243
ACGGGTAT: 0.0664
ATGACGGG: -0.0459
ATTTTGTG: 0.251
CGGATAGC: -0.102
AACCCCAA: -0.0182
ACCATTCC: -0.0605
AACGCACT: -0.0494

Set 3
Target: RING finger protein unkempt homolog, zinc fingers 1-6, GST-SBP tag (UNK, Homo sapiens, UniProt Q9C0B0, residues 30-357)
Chain of UniProt Q9C0B0 (30-357, looked up): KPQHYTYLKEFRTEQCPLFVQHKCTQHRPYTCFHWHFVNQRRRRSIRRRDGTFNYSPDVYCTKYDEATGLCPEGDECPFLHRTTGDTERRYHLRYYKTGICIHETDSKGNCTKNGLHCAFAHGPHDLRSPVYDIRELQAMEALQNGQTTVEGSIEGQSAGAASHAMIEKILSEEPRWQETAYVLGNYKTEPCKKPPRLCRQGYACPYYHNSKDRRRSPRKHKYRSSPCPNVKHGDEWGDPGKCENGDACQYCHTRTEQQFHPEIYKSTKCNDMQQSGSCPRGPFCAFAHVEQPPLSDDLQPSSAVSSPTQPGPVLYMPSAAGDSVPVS
Method: RNA Bind-n-Seq
Form: RNA
Matrix: in vitro
Concentration: not given
Setting: RNA with constant flanks, human and mouse sites, ends assumed
Relative to: input RNA pool
Reading: higher = stronger binding
Measurement: bound/input enrichment
Constant ends, left off below: GGGAGUUCUACAGUCCGACGAUC … CAACAGAGGAUUGAGCAUCA
CCCCCUCGGAAGAAAAGGGCCCGGGCAGACCCCACUGUUGAAAGUGAGGAGGCGUUUAAGAAUAGAAUGGAGGUUAAAGUGAAGAUUCCUGAAGAAUUAAAACCAUGGCUUGUUGAGGAC: 0.767 ratio
AGAAAUGCAUAUACAAUGGUUUUGCAUAAACAUGGAGAAAAGCUCUACACUGGACUAAGAGAAGUUGUUACUGAACAUCUCAUAAAUAAGGUGCGAGAAGAUGUACUAAAUUCAUUGAAU: 0.0981 ratio
UGGACCUAGAUGAUGAGUUGUACCUGGGUGGCUUGCCAGAAAAUAAGGCUGGCCUAGUCUUCCCUACCGAGGUGUGGACUGCUCUGCUCAACUACGGCUACGUGGGCUGCAUCCGGGACC: 0.219 ratio
GGCCUGGAGUUCGGCAAGUUGCCAUUUGGUGCCUGUGAAGAUCCUAUCAGUGAACUCCAUUUAGCAACAACGUGGCCUCAUUUGACAGAAGGGAUCAUUGUAGAUAAUGAUGUUUAUUCU: 1.37 ratio
AUGUCUUUAGUUUCAGAAUAACAGUGCCAUUACCAUAUGUUUGUAUGUUGCAGUUGGAUAUAGCUGAGACUCCUCCAUCUUGGUUUUCUCUUCACUCAUCCAUUUCUUCAGCUGCAUGAU: 1.5 ratio
CAACCACUGACUGUGGGCUCUUGACUUUCCUAAGCAAUAUCGUGAUGGAGAAAAGUCAUUAUAACUUGAGAUUUGGUCUCUAUGGGAACAGACAAUGGCCCAUUCAGGCCUGCUGCUGAC: 0.117 ratio
GGAAGAGGUGGUGACCAGCAGAGUGGUUAUGGGAAGGUAUCCAGGCGAGGUGGUCAUCAAAAUAGCUACAAACCAUACUAAAUUAUUCCAUUUGCAACUUAUCCCCAACAGGUGGUGAAG: 3.48 ratio
UAGCCUGCACAAAUAAUUGACAAAUGUCACCCAAAGGAUUCUUUUGGGAGGGUUUUUGUUUGCUUGUUUUGCAUAAGAGUUUGUAUUAAAGAACUUCAAAGGAAGGAACAGGGAUACUCU: 0.617 ratio
GGUGAACUGGCAGCAGAGGUGGCGAGCAGCAAUGGAUACACUUGCCGUGACUGCAGGAUGCUCUCAGCGCGCACUGACGCACUCACAGCCCACUCUGCCAUCCACGGGACCACCUCCAGG: 0.0604 ratio
UGUCUGGACCGGCACUGGGUUCUGCAGGGUUGAAGACGGGCAACAGAUGCCAGAAGCUCCCUUAGACUGUCACCUGAGUCUGGAGACCGGCUCGCAGCCCCACAGCAUCACACUGCAAGU: 0.315 ratio
UCUCCUGUCCCCUCCCCUCCCCACCCCAUCUAUUAAUAUUAUUCUUUUGAAGAUUCUUCGUUGUCAAGCCGCCAAAGUGGAGAGUGCGAUUGCAGAAGGGGGUGCUUCUCGUUUCAGUGC: 1.44 ratio

Set 4
Target: RNA binding protein fox-1 homolog 2, RRM domain, GST-SBP tag (RBFOX2, Homo sapiens, UniProt O43251-10, residues 100-194)
Method: RNA Bind-n-Seq
Form: RNA
Matrix: in vitro
Concentration: 365 nM
Setting: natural RNA segment, single round, ends assumed
Relative to: no-protein control
Reading: higher = stronger binding
Measurement: RBNS enrichment (R)
Constant ends, left off below: GGGAGUUCUACAGUCCGACGAUC … UGGAAUUCUCGGGUGCCAA
Residues (chain): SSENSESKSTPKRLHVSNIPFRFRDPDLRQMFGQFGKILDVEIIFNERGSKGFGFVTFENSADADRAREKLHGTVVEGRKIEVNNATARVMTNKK
GACGUUUUUUUUCCCCCCAUCAAAAUUAAAACUCUUUCUUUUGGAUUUAAUGAAGUAUUGCUAACUGAAGCCAGUUUGACUUGUGAGAGAGGUUAGACUGACAGAAGGUG: 0.938
ACCUUAUUGCUAGUACCUAGAAACACACAAGGCUAUCCAGCCAAAUCUUAAUGUAAAGUAGCUAGAGCCAUGGAAGUCCAGUAUGAAUUAAAGGAAAAAAAGUAUUGAAU: 0.532
AGAGCUAAGUUCCUGAAGACUAAGCUAGAUAGCUGCAGCUAUAUGUAAAUUGUAUAUUUUUAUGAACUUUUGAAGCACACACUCCUGUUUCCCUCUGUGUAGCUUUGUGG: 0.487
AGACUUAAGUUUUGUGGGCACUGGAAGUCACUUUGAUAGAUGGAUUGAAACUGUUCCUAUUUGCCCUGGGACGGUUUCUAUCUAUCAAAGGAAGGUUUUCACCUGUAGAA: 0.596
GGAAACGAUUCCCCCAGUCAUUCUGGGAACAUGUUGUAAGCACUGACUGGGACCAGGCACCAGGCAGGGUCUAGAAGGCUGUGGUGAGGGAAGACGCCUUUCUCCUCCAA: 0.327
GUAACACAUAGGGCAGGUACCUACUGAGGCACCCAGGCUUCUAAAAACUGUUCUCAGGACCUUGGGCUCUGGGCAGUCUGUCAGUACCAAGCCUUUAUGCCUAUGAGAAC: 0.39
UUAAAACAGCUUUGCUUGUAUUGUGAAGAUUUAAAAACAAACUUGAGAUUUUUAACGUAACUAUUAACACAGUUUUAACAUAAGUUAUCCCACUGGGUUUAAGAGCAUCU: 0.716
CGAGUGUUUGAGGAAGACCCAGGCUCAGACCCACAGCAGCCCACCUUCUCUCUGACAGCCCAUCUUCGUCAGGCCCAUUCCCAGGAUGUCAACUGUGUGGCUUGGAAUCC: 0.672
AGCAAUAGUUUGGGCAGUUUUAGUUGUUUUUAGUGAGCAUGUUGUAGUCAUGACUGCAAAGAGAGAGAAUAAACUGCCCGCUCAGAAGAUAUGUAAUUUGUAUUGUUGUA: 2.94
CGUGUGCUUUUGUAGAGUUUAACAUCUGGUGUUUUUCUGAAAUAUAUAUAAAUAUAUAUCUAUAAACAUAUAUUGCUUUAUUUGAAACAAAUUAAAAUAUGCUGCAUUUG: 1.43
AUCUAACCAUGUGCAAUGUGUCCUUAAUAAGCUUUGAGUAUCUUACAGCUUGCCUUUUUAAUGUUAGUCACAAUGUUUUUGUGGUUUGAAGUUUAGUUUAAUGUUAGUGC: 0.531
UCUUAAAUUUCCUGAUAUUUAUGUACAUAUAGUAAGAUAACUGAUAAGUCUUAGAUGUUUGAGUGAAGCACUGCUACAAUAGUAAUAGUUUGGCUAGAUCUUAAAGCUGU: 0.367

Set 5
Target: Histone acetyltransferase KAT6A, winged helix 1, GST fusion (KAT6A, Homo sapiens, UniProt Q92794, residues 1-85)
Method: protein binding microarray
Form: double-stranded DNA, one strand shown
Matrix: in vitro
Concentration: not given
Setting: 8-mer, flanks averaged, mean of 2 arrays, mostly near background
Relative to: not given
Reading: higher = stronger binding
Measurement: E-score
Construct (chain): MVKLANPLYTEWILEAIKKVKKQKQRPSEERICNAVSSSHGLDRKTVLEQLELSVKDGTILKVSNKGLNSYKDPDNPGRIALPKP
GTATATAC: 0.0335
AGCTACTG: -0.102
CAAATTGG: -0.168
GTCACCCA: -0.131
CGAACGGA: 0.208
AATAACTC: -0.185
GCTGGCTA: -0.166
AACGTTGC: -0.0239
GTCAAGAC: -0.00645
GTTAGGGA: 0.00938
CTCTTAAG: -0.131
ACCACCCC: -0.0916
AAGGACGA: -0.183
AATTGACC: 0.0037
TAACGTCA: -0.196
CAAATAAC: -0.0639
TAGCAGGA: -0.308
CCGCCCAA: 0.121
CGTCCTAA: -0.128
GAGCGCGA: 0.29
CGACCTAG: 0.0501
ATGGAGAA: -0.0191

Set 6
Target: ABI1, truncated, D143A, DHFR fusion (Arabidopsis thaliana)
Method: DHFR PCA, deep sequencing
Matrix: yeast
Setting: methotrexate growth selection, single substitutions
Added: (+)-ABA 0.032 µM
Relative to: wild-type fitted maximum
Reading: higher = stronger binding
Measurement: relative binding score
Starting sequence: PYL1, truncated, DHFR fusion (Arabidopsis thaliana); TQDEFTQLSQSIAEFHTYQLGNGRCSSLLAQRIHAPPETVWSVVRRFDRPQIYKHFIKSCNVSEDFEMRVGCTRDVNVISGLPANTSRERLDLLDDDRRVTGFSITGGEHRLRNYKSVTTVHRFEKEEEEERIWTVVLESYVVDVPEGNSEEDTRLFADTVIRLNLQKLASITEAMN
Q31E: 1.84%
R163L: -0.178%
D153H: 1.7%
R123D: 12.5%
A35S: 3.57%
N61L: 18.3%
L164R: 7.13%
K58G: 0.419%
V161D: 0.749%
I133R: 8.55%
R163Q: 27.1%
D159W: -9.01%
L20V: 52.5%
A84F: 85.1%

Some of these lines once more (set 3):
CCCCCUCGGAAGAAAAGGGCCCGGGCAGACCCCACUGUUGAAAGUGAGGAGGCGUUUAAGAAUAGAAUGGAGGUUAAAGUGAAGAUUCCUGAAGAAUUAAAACCAUGGCUUGUUGAGGAC: 0.767 ratio
AGAAAUGCAUAUACAAUGGUUUUGCAUAAACAUGGAGAAAAGCUCUACACUGGACUAAGAGAAGUUGUUACUGAACAUCUCAUAAAUAAGGUGCGAGAAGAUGUACUAAAUUCAUUGAAU: 0.0981 ratio
UGGACCUAGAUGAUGAGUUGUACCUGGGUGGCUUGCCAGAAAAUAAGGCUGGCCUAGUCUUCCCUACCGAGGUGUGGACUGCUCUGCUCAACUACGGCUACGUGGGCUGCAUCCGGGACC: 0.219 ratio
GGCCUGGAGUUCGGCAAGUUGCCAUUUGGUGCCUGUGAAGAUCCUAUCAGUGAACUCCAUUUAGCAACAACGUGGCCUCAUUUGACAGAAGGGAUCAUUGUAGAUAAUGAUGUUUAUUCU: 1.37 ratio
AUGUCUUUAGUUUCAGAAUAACAGUGCCAUUACCAUAUGUUUGUAUGUUGCAGUUGGAUAUAGCUGAGACUCCUCCAUCUUGGUUUUCUCUUCACUCAUCCAUUUCUUCAGCUGCAUGAU: 1.5 ratio
CAACCACUGACUGUGGGCUCUUGACUUUCCUAAGCAAUAUCGUGAUGGAGAAAAGUCAUUAUAACUUGAGAUUUGGUCUCUAUGGGAACAGACAAUGGCCCAUUCAGGCCUGCUGCUGAC: 0.117 ratio
GGAAGAGGUGGUGACCAGCAGAGUGGUUAUGGGAAGGUAUCCAGGCGAGGUGGUCAUCAAAAUAGCUACAAACCAUACUAAAUUAUUCCAUUUGCAACUUAUCCCCAACAGGUGGUGAAG: 3.48 ratio
UAGCCUGCACAAAUAAUUGACAAAUGUCACCCAAAGGAUUCUUUUGGGAGGGUUUUUGUUUGCUUGUUUUGCAUAAGAGUUUGUAUUAAAGAACUUCAAAGGAAGGAACAGGGAUACUCU: 0.617 ratio
GGUGAACUGGCAGCAGAGGUGGCGAGCAGCAAUGGAUACACUUGCCGUGACUGCAGGAUGCUCUCAGCGCGCACUGACGCACUCACAGCCCACUCUGCCAUCCACGGGACCACCUCCAGG: 0.0604 ratio
UGUCUGGACCGGCACUGGGUUCUGCAGGGUUGAAGACGGGCAACAGAUGCCAGAAGCUCCCUUAGACUGUCACCUGAGUCUGGAGACCGGCUCGCAGCCCCACAGCAUCACACUGCAAGU: 0.315 ratio
UCUCCUGUCCCCUCCCCUCCCCACCCCAUCUAUUAAUAUUAUUCUUUUGAAGAUUCUUCGUUGUCAAGCCGCCAAAGUGGAGAGUGCGAUUGCAGAAGGGGGUGCUUCUCGUUUCAGUGC: 1.44 ratio
